Measured values collected from several papers.
Numbered parts are unrelated; each lists some results of a single study. Changes are numbered by the printed parent chain. Converted amounts (≈) assume the structure as drawn.
Chain of UniProt P42336 (whole entry, unmodified, looked up): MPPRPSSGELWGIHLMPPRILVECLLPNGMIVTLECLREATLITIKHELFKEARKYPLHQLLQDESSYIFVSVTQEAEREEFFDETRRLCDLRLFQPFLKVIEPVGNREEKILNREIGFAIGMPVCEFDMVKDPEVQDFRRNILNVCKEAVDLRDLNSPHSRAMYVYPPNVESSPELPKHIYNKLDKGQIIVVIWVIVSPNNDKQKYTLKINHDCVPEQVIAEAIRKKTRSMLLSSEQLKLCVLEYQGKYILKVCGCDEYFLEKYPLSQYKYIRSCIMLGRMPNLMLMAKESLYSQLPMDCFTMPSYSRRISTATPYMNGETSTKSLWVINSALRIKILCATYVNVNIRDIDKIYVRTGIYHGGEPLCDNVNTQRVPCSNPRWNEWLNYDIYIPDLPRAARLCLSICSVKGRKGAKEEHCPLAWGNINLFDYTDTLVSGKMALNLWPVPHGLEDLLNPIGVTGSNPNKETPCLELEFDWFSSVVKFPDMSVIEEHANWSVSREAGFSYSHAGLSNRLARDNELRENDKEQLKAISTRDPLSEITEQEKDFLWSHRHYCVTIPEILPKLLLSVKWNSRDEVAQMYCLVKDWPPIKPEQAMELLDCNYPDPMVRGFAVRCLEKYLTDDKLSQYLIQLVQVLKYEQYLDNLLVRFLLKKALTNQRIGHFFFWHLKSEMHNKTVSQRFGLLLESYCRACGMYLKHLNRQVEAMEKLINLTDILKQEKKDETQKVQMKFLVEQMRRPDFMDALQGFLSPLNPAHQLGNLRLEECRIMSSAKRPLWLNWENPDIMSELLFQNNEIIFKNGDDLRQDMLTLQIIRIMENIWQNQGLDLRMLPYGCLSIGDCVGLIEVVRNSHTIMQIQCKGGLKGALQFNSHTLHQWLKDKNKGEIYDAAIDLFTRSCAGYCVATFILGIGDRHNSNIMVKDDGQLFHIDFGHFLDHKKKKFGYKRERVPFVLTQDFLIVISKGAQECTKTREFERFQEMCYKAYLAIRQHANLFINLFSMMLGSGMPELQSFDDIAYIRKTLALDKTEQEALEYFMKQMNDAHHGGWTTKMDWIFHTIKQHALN

Block 1 — technique: DHFR PCA, deep sequencing; medium: yeast; added: (+)-ABA 2500 µM; reference: wild-type fitted maximum; direction: higher = stronger binding
Target: ABI1, truncated, D143A, DHFR fusion (Arabidopsis thaliana)
Notes: methotrexate growth selection, single substitutions
Parent: PYL1, truncated, DHFR fusion (Arabidopsis thaliana); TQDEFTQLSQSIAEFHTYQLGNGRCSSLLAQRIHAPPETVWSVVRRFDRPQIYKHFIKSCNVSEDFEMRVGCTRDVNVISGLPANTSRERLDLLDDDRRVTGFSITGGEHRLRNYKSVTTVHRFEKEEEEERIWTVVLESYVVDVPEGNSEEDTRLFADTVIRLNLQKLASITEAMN
| Variant | relative binding score |
| --- | --- |
| G148Y | 91.1% |
| A170H | 86.1% |
| D159C | 77.2% |
| N85V | 97.7% |
| L94V | 95.7% |
| P36Y | 94.4% |
| I33Q | 0.198% |
| G71K | 79.9% |

Block 2 — organism: Staphylococcus aureus; strain: USA300
SMILES: CCCCC[C@@H](O)CC(=O)N[C@H]1COC(=O)[C@H](CO)NC(=O)CNC(=O)[C@H]([C@@H](C)O)NC(=O)[C@H](Cc2ccccc2)NC(=O)[C@@H](Cc2c[nH]c3ccccc23)NC(=O)[C@@H]([C@H](C)O)NC(=O)[C@H](CC(N)=O)NC(=O)[C@@H]([C@H](C)O)NC(=O)[C@H](CC(C)C)NC(=O)[C@@H](Cc2c[nH]c3ccccc23)N(C)C(=O)CNC(=O)[C@H](CO)NC(=O)[C@@H](CO)NC1=O
| added | MIC |
| --- | --- |
| menaquinone 0.5 µg/mL | 32 µg/mL (≈ 19.2 µM) |
| ubiquinone 64 µg/mL | 8 µg/mL (≈ 4.79 µM) |
| menaquinone 1 µg/mL | 64 µg/mL (≈ 38.4 µM) |
| menaquinone 2 µg/mL | 64 µg/mL (≈ 38.4 µM) |

Block 3 — target: inorganic phosphate, free oxyanion; technique: microfluidic competitive inhibition; medium: in vitro, cell-free expressed; concentration: not given; direction: lower = stronger binding
Notes: derived from inhibition constants, unchanged parent 615000 nM
Parent: PafA, mature enzyme, eGFP fusion (Elizabethkingia meningoseptica, UniProt Q9KJX5); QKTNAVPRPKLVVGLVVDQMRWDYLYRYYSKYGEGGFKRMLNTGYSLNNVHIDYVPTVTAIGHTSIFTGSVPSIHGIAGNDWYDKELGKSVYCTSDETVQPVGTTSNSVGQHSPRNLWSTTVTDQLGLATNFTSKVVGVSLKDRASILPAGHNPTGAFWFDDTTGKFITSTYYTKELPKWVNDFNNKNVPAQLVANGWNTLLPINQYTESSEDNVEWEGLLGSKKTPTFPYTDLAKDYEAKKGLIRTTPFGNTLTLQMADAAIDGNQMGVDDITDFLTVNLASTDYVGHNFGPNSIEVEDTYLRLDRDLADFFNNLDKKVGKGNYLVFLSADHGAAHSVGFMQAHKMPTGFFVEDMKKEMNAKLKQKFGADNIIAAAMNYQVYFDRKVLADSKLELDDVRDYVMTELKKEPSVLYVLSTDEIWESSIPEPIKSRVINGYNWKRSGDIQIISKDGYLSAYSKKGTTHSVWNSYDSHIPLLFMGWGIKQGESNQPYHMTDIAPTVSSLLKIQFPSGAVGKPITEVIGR
| Variant | phosphate dissociation constant [µM] |
| --- | --- |
| R144G | > 2050 |
| Y402V | 649 |
| S295V | 206 |
| T284V | 766 |
| T57V | 251 |
| D285G | < 2.04 |
| F351G | 553 |
| R246G | 655 |
| T130G | 497 |
| R8G | 437 |
| G76A | 488 |
| R27G | 477 |
| A377G | 579 |
| K452G | 468 |
| A191V | 624 |
| S113G | 436 |
| L277G | 456 |
| M258V | 660 |

Block 4 — technique: universal PBM; molecule type: double-stranded DNA, one strand shown; medium: in vitro; concentration: 600 nM; direction: higher = stronger binding
Target: Sal-like protein 4, full length isoform A (SALL4, Homo sapiens, UniProt Q9UJQ4, residues 1-1053)
Chain of UniProt Q9UJQ4 (whole entry, looked up): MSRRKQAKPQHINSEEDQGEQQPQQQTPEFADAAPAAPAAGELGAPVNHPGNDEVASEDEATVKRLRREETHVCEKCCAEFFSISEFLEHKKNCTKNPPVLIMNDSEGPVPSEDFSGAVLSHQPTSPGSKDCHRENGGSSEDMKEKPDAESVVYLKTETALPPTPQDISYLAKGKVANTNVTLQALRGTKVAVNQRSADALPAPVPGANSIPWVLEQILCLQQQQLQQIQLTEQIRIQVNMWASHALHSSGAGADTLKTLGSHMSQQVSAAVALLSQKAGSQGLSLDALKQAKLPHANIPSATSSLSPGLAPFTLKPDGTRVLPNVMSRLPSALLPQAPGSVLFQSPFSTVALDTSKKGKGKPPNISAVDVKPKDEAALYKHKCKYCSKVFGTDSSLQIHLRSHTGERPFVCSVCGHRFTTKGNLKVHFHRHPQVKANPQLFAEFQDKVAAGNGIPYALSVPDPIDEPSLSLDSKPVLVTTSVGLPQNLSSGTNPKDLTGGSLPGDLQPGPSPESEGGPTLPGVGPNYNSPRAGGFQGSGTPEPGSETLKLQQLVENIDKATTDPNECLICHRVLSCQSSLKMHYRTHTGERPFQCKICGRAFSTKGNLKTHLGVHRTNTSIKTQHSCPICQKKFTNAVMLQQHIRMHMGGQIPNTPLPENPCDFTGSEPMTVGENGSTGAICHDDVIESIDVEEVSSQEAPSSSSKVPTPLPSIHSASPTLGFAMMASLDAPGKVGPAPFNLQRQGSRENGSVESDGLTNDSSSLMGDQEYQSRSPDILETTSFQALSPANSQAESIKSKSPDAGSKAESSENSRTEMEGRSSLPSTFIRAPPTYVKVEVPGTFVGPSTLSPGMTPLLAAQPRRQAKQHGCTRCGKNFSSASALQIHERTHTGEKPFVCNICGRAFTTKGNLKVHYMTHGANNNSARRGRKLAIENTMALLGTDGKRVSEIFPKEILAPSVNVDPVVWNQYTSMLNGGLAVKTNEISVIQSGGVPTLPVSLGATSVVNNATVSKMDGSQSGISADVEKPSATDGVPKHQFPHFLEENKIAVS
Notes: 8-mer, flanks averaged, mean of replicates
| Oligonucleotide | E-score |
| --- | --- |
| CACTGCAC | -0.141 |
| GACCAATC | -0.0385 |
| AGAAAAAC | 0.169 |
| GGGGGCTA | -0.332 |
| AGACTTGC | -0.11 |
| CGAGACAC | -0.218 |
| ACGCACAC | 0.0205 |
| CGGGGATA | -0.246 |

Mixed results
| Structure (SMILES) | target | effect on | technique | concentration | quantity | value |
| --- | --- | --- | --- | --- | --- | --- |
| Cn1cncc1[C@@](O)(COc1ccc(C#N)cc1-c1ccc(OC(F)(F)F)cc1)c1ccc(C#N)cc1 | Phosphatidylinositol 4,5-bisphosphate 3-kinase catalytic subunit alpha isoform (PIK3CA, Homo sapiens, UniProt P42336, E545A) | cell-free assay | competition with immobilised ligand | 1 µM | remaining binding | 86% |

Some of these lines once more (block 3):
| Variant | phosphate dissociation constant [µM] |
| --- | --- |
| K452G | 468 |
| L277G | 456 |
| S295V | 206 |
| M258V | 660 |
